Experimental data gathered from unrelated publications.
Numbered parts are unrelated; each lists some results of a single study. Positions count from the first letter of the parent shown.

Sample 1 — target: CRIPT, C-terminal peptide; technique: DHFR complementation, deep sequencing; sample: yeast; baseline: wild type; direction: higher = weaker binding
Setting: single substitutions, model-inferred values
Starting sequence: ERBIN, PDZ domain 1 (human); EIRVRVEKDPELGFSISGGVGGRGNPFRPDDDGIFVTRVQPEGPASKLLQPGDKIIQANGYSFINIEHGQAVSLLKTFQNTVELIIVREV; partner TKNYKQTSV
For `R3G`, “binding free energy change” read 0.175 kcal/mol.
`T77I`: “binding free energy change” 0.334 kcal/mol.
`E1T`: “binding free energy change” 0.107 kcal/mol.
`V20R` — result for “binding free energy change”: -0.0473 kcal/mol.
For `E67G`, “binding free energy change” read 0.0103 kcal/mol.
For `V6D`, “binding free energy change” read 0.527 kcal/mol.
`V4Y`: “binding free energy change” 0.0636 kcal/mol.
`D32C` — result for “binding free energy change”: 0.0871 kcal/mol.
Under “binding free energy change”, `D30E` is recorded as -0.0247 kcal/mol.
Under “binding free energy change”, `D53N` is recorded as 0.229 kcal/mol.
`I34G`: “binding free energy change” 0.295 kcal/mol.
`P26E` — result for “binding free energy change”: 0.94 kcal/mol.
`V82N`: “binding free energy change” 1.56 kcal/mol.
For `Q50Y`, “binding free energy change” read 0.0455 kcal/mol.
`Q57F` — result for “binding free energy change”: 0.0882 kcal/mol.
`Q79D` — result for “binding free energy change”: -0.011 kcal/mol.
`K47N` — result for “binding free energy change”: 0.0865 kcal/mol.

Sample 2 — technique: DHFR PCA, deep sequencing; sample: yeast; together with: (+)-ABA 0 µM; baseline: wild-type fitted maximum; direction: higher = stronger binding
Target: ABI1, truncated, D143A, DHFR fusion (Arabidopsis thaliana)
Setting: methotrexate growth selection, single substitutions
Starting sequence: PYL1, truncated, DHFR fusion (Arabidopsis thaliana); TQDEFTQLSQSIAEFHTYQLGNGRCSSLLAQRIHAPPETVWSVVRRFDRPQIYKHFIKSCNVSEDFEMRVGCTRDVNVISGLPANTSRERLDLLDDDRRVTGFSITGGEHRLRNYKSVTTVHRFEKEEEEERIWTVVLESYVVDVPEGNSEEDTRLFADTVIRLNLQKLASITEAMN
For `V143T`, “relative binding score” read 13.3%.
Under “relative binding score”, `D153I` is recorded as -9.31%.
`F56C`: “relative binding score” -1.56%.
`L82V` — result for “relative binding score”: 14.5%.
For `E131G`, “relative binding score” read 58.4%.
For `V78G`, “relative binding score” read 8.59%.
For `A158N`, “relative binding score” read 11.4%.
Under “relative binding score”, `V161Q` is recorded as 38.8%.
For `E125Y`, “relative binding score” read 9.34%.
`A158W` — result for “relative binding score”: 1.71%.
Under “relative binding score”, `T73A` is recorded as 4.87%.
Under “relative binding score”, `H122T` is recorded as 1.48%.
`E129N` — result for “relative binding score”: 25.8%.
For `F5C`, “relative binding score” read 4.36%.
For `Q2C`, “relative binding score” read 28.6%.
Under “relative binding score”, `S80E` is recorded as -6.59%.
Under “relative binding score”, `K54V` is recorded as -0.366%.
Under “relative binding score”, `P83E` is recorded as 16.6%.
`S87R` — result for “relative binding score”: 62.1%.
`E89K`: “relative binding score” 6.13%.
`V78E` — result for “relative binding score”: -1.62%.
For `L94E`, “relative binding score” read -4.93%.
Under “relative binding score”, `L164H` is recorded as 12.5%.
For `D95P`, “relative binding score” read -0.568%.
`E174F` — result for “relative binding score”: -12.7%.

Sample 3 — technique: protein-binding microarray; form: double-stranded DNA, one strand shown; sample: in vitro; tested at: 940 nM top; setting: 60-bp whole probe; together with: salmon DNA 0.4 mg/ml; baseline: random background probes; direction: higher = stronger binding; all sequences stand within: GCCTAGCAC … GTCTTGATTCGCTTGACGCTGCTG
Target: Interferon regulatory factor 5, full length, phosphomimetic (IRF5, Homo sapiens, UniProt Q13568-2, residues 1-514, S451D/S453D/S456D/S462D)
`TTAGGTCTCTGTATCGGTTAGTGCTAG`: “fitted relative affinity” 2.5 z-score.
For `GACAGTATCGGTCTCGGGACGTGCTAG`, “fitted relative affinity” read 8.78 z-score.
`AGACAGTTGAGTTCTGTTGCAGTGCTA` — result for “fitted relative affinity”: -0.333 z-score.
For `TCACCTCTTTCTCTGCTACTGTGCTAG`, “fitted relative affinity” read 1.86 z-score.
Under “fitted relative affinity”, `TTAGAACTGACACTGGATTAGTGCTAG` is recorded as -0.468 z-score.
For `CCCTAATTCTGATTGGATAAGTGCTAG`, “fitted relative affinity” read 0.28 z-score.
`TTAGGACCGCTTCTCCTTTAGTGCTAG`: “fitted relative affinity” -0.122 z-score.
For `GAGGATTTCGGGTTTCGAGACGTGCTA`, “fitted relative affinity” read 2.05 z-score.
For `CCATGTTGCAGACTCGAAGGGTGCTAG`, “fitted relative affinity” read -0.693 z-score.
`GTAGGTATCGACACTGGGTTAGTGCTA`: “fitted relative affinity” 4.1 z-score.
Under “fitted relative affinity”, `TTCATTATTGTCTTCCCCATGTGCTAG` is recorded as 1.25 z-score.
`ACTGATTTCCACTTTCTTAAGTGCTAG` — result for “fitted relative affinity”: 1.67 z-score.
Under “fitted relative affinity”, `TTGTATTTGTCCCTATTTAAGTGCTAG` is recorded as 1.65 z-score.
For `TTAAGTATCCTTCTCCTTTAGTGCTAG`, “fitted relative affinity” read 0.776 z-score.
For `GACGGTATCGGGTATCCGGACGTGCTA`, “fitted relative affinity” read 5.68 z-score.
For `TTAGGACTGGGACTGGGTTTGTGCTAG`, “fitted relative affinity” read -0.19 z-score.
`GGCGGTATCCTTCTCCTGACGTGCTAG` — result for “fitted relative affinity”: 0.603 z-score.
`TCATTCTTGGGACTCACACTGTGCTAG`: “fitted relative affinity” 0.545 z-score.

Sample 4 — technique: aptamer microarray, sandwich; form: DNA with 2'F-ANA; sample: in vitro; tested at: 200 nM; together with: Cy3 exosite-II aptamer, 400 nM; direction: higher = stronger binding; oligonucleotide: GGTTGGTGTGGTTGG
Target: Prothrombin, mature alpha-thrombin (F2, Homo sapiens, UniProt P00734)
Setting: whole 15-mer aptamer, many near background
`2'F-ANA at 3 5 7 8 9 11 13 15` — result for “mean fluorescence intensity”: 101 a.u.
`2'F-ANA at 1 3 7 9 15`: “mean fluorescence intensity” 291 a.u.
`2'F-ANA at 2 4 5 6 9 10 11 14`: “mean fluorescence intensity” 50.3 a.u.
`2'F-ANA at 2 3 4 7 8 9 11 12 14 15` — result for “mean fluorescence intensity”: 317 a.u.
`2'F-ANA at 2 4 6 10 11` — result for “mean fluorescence intensity”: 108 a.u.
For `2'F-ANA at 1 2 4 5 6 9 11 12 14 15`, “mean fluorescence intensity” read 92.9 a.u.
Under “mean fluorescence intensity”, `2'F-ANA at 1 3 4 5 8 10 13 15` is recorded as 59.6 a.u.
`2'F-ANA at 2 3 5 9 14 15`: “mean fluorescence intensity” 53.4 a.u.
Under “mean fluorescence intensity”, `2'F-ANA at 1 5 7 11 13 14 15` is recorded as 59 a.u.
For `2'F-ANA at 1 2 4 8 9 10 12 14 15`, “mean fluorescence intensity” read 48.7 a.u.
Under “mean fluorescence intensity”, `2'F-ANA at 1 4 6 7 8 9 10 11 13 14 15` is recorded as 48.4 a.u.
`2'F-ANA at 1 2 3 5 7 9 13 15` — result for “mean fluorescence intensity”: 50.1 a.u.
`2'F-ANA at 1 2 4 5 6 9 11 13 15`: “mean fluorescence intensity” 49.6 a.u.
For `2'F-ANA at 1 3 7 9 10 13`, “mean fluorescence intensity” read 74.9 a.u.
`2'F-ANA at 1 3 4 6 8 9 10 11 13 14 15` — result for “mean fluorescence intensity”: 51.5 a.u.
For `2'F-ANA at 1 2 5 6 8 9 10 11 14 15`, “mean fluorescence intensity” read 62.2 a.u.
For `2'F-ANA at 1 2 3 4 5 15`, “mean fluorescence intensity” read 60.9 a.u.
Under “mean fluorescence intensity”, `2'F-ANA at 2 3 5 6 8 10 12 14 15` is recorded as 49.4 a.u.
`2'F-ANA at 1 2 4 5 6 7 13 14`: “mean fluorescence intensity” 46.1 a.u.
`2'F-ANA at 2 3 5 7 11 12` — result for “mean fluorescence intensity”: 175 a.u.
`2'F-ANA at 2 5 6 7 8 9 11 13 14 15`: “mean fluorescence intensity” 50.5 a.u.
Under “mean fluorescence intensity”, `2'F-ANA at 1 2 3 7 10 12 13 14 15` is recorded as 138 a.u.
`2'F-ANA at 9 13` — result for “mean fluorescence intensity”: 443 a.u.
`2'F-ANA at 3 5 6 7 9 11 13 14 15`: “mean fluorescence intensity” 54.4 a.u.
For `2'F-ANA at 1 3 4 5 7 11 12 13 14`, “mean fluorescence intensity” read 49.1 a.u.

Sample 5 — technique: RNA Bind-n-Seq; form: RNA; sample: in vitro; tested at: 100 nM; baseline: input RNA pool; direction: higher = stronger binding
Target: RING finger protein unkempt homolog, zinc fingers 1-6, SBP tag (UNK, Homo sapiens, UniProt Q9C0B0, residues 30-357)
Chain of UniProt Q9C0B0 (30-357, looked up): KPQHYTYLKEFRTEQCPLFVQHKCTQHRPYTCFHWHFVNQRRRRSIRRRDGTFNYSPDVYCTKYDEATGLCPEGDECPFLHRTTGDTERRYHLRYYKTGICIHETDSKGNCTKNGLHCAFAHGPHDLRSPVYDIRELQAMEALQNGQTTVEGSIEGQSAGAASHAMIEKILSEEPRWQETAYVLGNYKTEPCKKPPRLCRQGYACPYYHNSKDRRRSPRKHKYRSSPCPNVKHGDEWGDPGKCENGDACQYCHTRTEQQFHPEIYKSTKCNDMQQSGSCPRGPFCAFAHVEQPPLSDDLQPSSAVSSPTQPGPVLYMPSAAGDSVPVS
Setting: RNA with constant flanks, vertebrate orthologous sites, ends assumed
All sequences stand within: GGGAGUUCUACAGUCCGACGAUC … CAACAGAGGAUUGAGCAUCA
`GUGACUUUGGAAGUCCGUAGUGUCUCAUUGCAGAUAAUUUUUAGCUUAGGGCCUGGUGGCUAGGUCGGUUCUCUCCUUUCCAGUCGGAGACCUCUGCCGCAAACAUGCUCCGCCAGAUCA` has a bound/input enrichment of 1.32 ratio.
The bound/input enrichment of `UACGCCAGAUACUUUUAACUGUUUUGAAGAUACAAAUAAGCUUUGCUUUUUGCAUUGAAAUAGAAUACUUUUAUAUUAUAAGUGCUUCAAAUGUGUGGAGAUGUUAGUUUGCUCUUACAA` is reported as 0.435 ratio.
`GGGACGCUUUGAUGUAAAAAUUGAAGUUAAGAGCUGAUCACAAGCACAAAUCUUUCCCACUAGCCAUUUAAAAAAAGUUAAAAAAAAGAUACAAAAAACAAAAACCUACUAGUCUUGAAU` has a bound/input enrichment of 2.19 ratio.
`AUCCUACCUGUGCAAAUUUCACAACACUGAAUGCAAAGUAGCAAUUUUCAUAGCCACAGUAAGGUAGCUUUAGGGCUCUGUUGCCAUGGUUUUAUUCAUGUGCAAGUUUUGACAAUGUAU` has a bound/input enrichment of 0.747 ratio.
The bound/input enrichment of `CUGUUGUGGAAAAUAGUCUACCCAGAGAAGUAUCACCCUAUAAAUAUUAAUCAAAUAAUUUACCUAGCAUCUUCUUAGGAAUCGAAUUACAUGUCAAGCAUUUAAAGUGAGUUUGAGAUG` is reported as 1 ratio.
For `AUCCGAUUGCUGGAUGAAGACUGUUCCAAGUUAUAACCAAACAAAUAGCUCCAUGGACUUUAGAAAUUAUAUGAUGAGAGAUGAGAAUUUGGAACCACUGCCCCAAAACUGGGAAAUGGC`, the bound/input enrichment was 0.8 ratio.
For `GCCUCCAACAGGCAAAUUCAGGGAGAGGUAGGUUUCAGGGAAUAUAAAUUUACUUAAUAUUAGUGGUCUUUAAGUAUAAACUUGAUGUAAUUGGUUUGGGAGGGGGCAGUGAUGAUGACU`, the bound/input enrichment was 1.04 ratio.
The bound/input enrichment of `CUGAAGCUUUGUGUUUGGCUGCACCUACAUAAACUGCUACAAAUAGAAUAAAGAAUCUCAUAGCCUGUAUCUAUCAUUUAGAUGCAUGGAAAAAUGGGCUUUGCACACAAUGGGUUUGGA` is reported as 1.62 ratio.
With `UCCUCUGAAUCCCAUAUCUUCUGUUUCAUAGUGCAGAAGUAUUCUUUUCAAUUAUAUUAUUAGUGGACUUGUUAUAAUUUUAGAGAAACUUUGAGUACAGAUACUGUGAGCUUACAUGGA` the bound/input enrichment was 1.59 ratio.
`GUGACUUUGGACGCCCGCAAGUGUUGAGUGUAGCGAGUCCUCGAUAUUGGGCCUGCCGAGUUAGUUCUCUUCUUCUGGACCCGAAGACCUCUGCCGCAAACAUGCUCCGCCAGAUCAUCG` has a bound/input enrichment of 0.352 ratio.
For `UUACAGUCAUUGAUGGACUCUAUUUUUUUAUUAUUACUUGGACCUUGGUCGUUUUUAUACUAGCAAAAUGUCUUGUUUUAAUUUGUGUUGGCGGGGGGAGGGAGUGAACUUGCUGAUUGU`, the bound/input enrichment was 2.44 ratio.

Sample 6 — technique: protein binding microarray; form: double-stranded DNA, one strand shown; sample: in vitro; tested at: not given; baseline: not given; direction: higher = stronger binding
Target: Histone acetyltransferase KAT6A, winged helix 2, GST fusion (KAT6A, Homo sapiens, UniProt Q92794, residues 85-181)
Setting: 8-mer, flanks averaged, mean of 2 arrays, mostly near background
Residues (chain): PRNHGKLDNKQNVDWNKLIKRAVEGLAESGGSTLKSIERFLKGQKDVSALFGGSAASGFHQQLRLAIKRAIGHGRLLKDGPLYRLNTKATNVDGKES
The E-score of `ATGGTAAC` is reported as -0.0671.
`ACCAGTTG` gave an E-score of -0.0198.
For `GTATGATA`, the E-score was 0.0891.
`CTGTTTCC` gave an E-score of -0.0643.
For `ATGTCATA`, the E-score was -0.234.
`GGTTCGTA` has an E-score of 0.0211.
With `ATCGACAG` the E-score was -0.0115.
`GCATAGAC` gave an E-score of -0.00652.
For `AAGTCGAA`, the E-score was -0.0426.
With `TCAACTCA` the E-score was -0.0532.
With `GGAGAGCC` the E-score was -0.0286.
`CTCGACAA` gave an E-score of 0.0199.
`ACGTGATG` has an E-score of -0.079.
For `CCGACTCA`, the E-score was -0.0585.
For `GTGGACCA`, the E-score was 0.062.
`ATCAGTCA` has an E-score of -0.0902.
